Measurements from different studies.
Numbers after ± are the reported error.
DRD2: D(2) dopamine receptor (DRD2, Homo sapiens, UniProt P14416)
UniProt P14416, sequence (whole entry, unmodified, looked up): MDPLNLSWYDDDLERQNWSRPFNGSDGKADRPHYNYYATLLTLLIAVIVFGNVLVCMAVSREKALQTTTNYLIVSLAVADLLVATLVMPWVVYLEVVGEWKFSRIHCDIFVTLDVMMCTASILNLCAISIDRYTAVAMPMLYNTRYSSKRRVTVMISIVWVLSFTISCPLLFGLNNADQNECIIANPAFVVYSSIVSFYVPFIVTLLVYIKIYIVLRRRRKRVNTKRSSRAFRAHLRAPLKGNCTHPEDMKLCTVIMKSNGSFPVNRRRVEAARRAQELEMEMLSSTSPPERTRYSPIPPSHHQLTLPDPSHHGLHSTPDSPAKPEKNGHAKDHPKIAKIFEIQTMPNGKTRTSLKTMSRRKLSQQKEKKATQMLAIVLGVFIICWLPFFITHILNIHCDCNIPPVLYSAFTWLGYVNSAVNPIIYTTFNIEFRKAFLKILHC

| SMILES | target | observed | mode | method | quantity | value |
| --- | --- | --- | --- | --- | --- | --- |
| O[C@@H]1Cc2ccccc2[C@H]1NCc1cn2ccc(Br)cc2n1 | DRD2 | ligand displacement | – | radioligand | Ki | > 10 µM |
| CCn1c2ccccc2c2cc(CNCCCn3ccnc3)ccc21 | DRD2 | cell-free assay | – | – | Ki | > 10 µM |
| O=C1CCc2ccc(OCCCCN3CCN(c4cccc5c4ccn5Cc4ccccc4)CC3)cc2N1 | DRD2 | cell-free assay | – | – | Ki | 0.022 µM |
| Cc1ccc(C(=O)NC[C@@H](C)N2CCCC2)cc1I | DRD2 | ligand displacement | – | radioligand | Ki | > 10 µM |
| CCn1c2ccccc2c2cc(CN[C@H]3CC[C@H](NC(=O)c4cc5ccccc5[nH]4)CC3)ccc21 | DRD2 | cell-free assay | – | – | Ki | > 10 µM |
| CN(C)C1(CNC(=O)c2cnn(-c3ccc(Cl)cc3)c2)CCSC1 (stereo not shown) | DRD2 | ligand displacement | – | radioligand | Ki | > 10 µM |
| CC1(C)C2=C3C=C4C5=[N+](CCC4OC3CCN2c2ccc(S(=O)(=O)[O-])cc21)c1ccc(C(=O)NCCCCOc2ccc(C(=O)CCCN3CCC(O)(c4ccc(Cl)cc4)CC3)cc2)cc1C5(C)C (stereo not shown) | DRD2 | binding | – | – | Ki | 0.03 ± 0.0054 µM |
| COc1ccc2c(c1)c1c(n2CO)CN2CCc3cc(OCc4cccc(F)c4)c(OC)cc3C2C1 (stereo not shown) | DRD2 | calcium signal | antagonist | – | IC50 | > 100 µM |
| Oc1c(CN2CCN(c3ccccn3)CC2)cc(Cl)c2cccnc12 | D(2) dopamine receptor (DRD2, Homo sapiens, UniProt P14416, H393A) | cAMP | agonist | luciferase | EC50 | 0.35 µM |
| Cn1c(C(=O)N[C@H]2CC[C@H](CCN3CCc4ccc(C#N)cc4C3)CC2)cc2ccccc21 | D(2) dopamine receptor, dimer with WT protomer (DRD2, Homo sapiens, UniProt P14416, E95A) | – | – | cell-based | IC50 | 1.55 µM |
| CCS[C@H]1CC[C@@H](N(C)CC(=O)Nc2ccc(C)c(C)c2)C1 | DRD2 | ligand displacement | – | radioligand | Ki | > 10 µM |
| CC(C)n1ccc2c(N3CCN(CCCCOc4ccc5c(c4)NC(=O)CC5)CC3)cccc21 | DRD2 | cAMP | antagonist | – | Kb | 0.0113 µM |
| COc1ccc2c(c1)c1c(n2CO)CN2CCc3cc(OC)c(OCc4ccccc4)cc3C2C1 (stereo not shown) | DRD2 | calcium signal | antagonist | – | IC50 | > 100 µM |

A few entries again:
| SMILES | target | observed | mode | method | quantity | value |
| --- | --- | --- | --- | --- | --- | --- |
| CN(C)C1(CNC(=O)c2cnn(-c3ccc(Cl)cc3)c2)CCSC1 (stereo not shown) | DRD2 | ligand displacement | – | radioligand | Ki | > 10 µM |
| CC1(C)C2=C3C=C4C5=[N+](CCC4OC3CCN2c2ccc(S(=O)(=O)[O-])cc21)c1ccc(C(=O)NCCCCOc2ccc(C(=O)CCCN3CCC(O)(c4ccc(Cl)cc4)CC3)cc2)cc1C5(C)C (stereo not shown) | DRD2 | binding | – | – | Ki | 0.03 ± 0.0054 µM |
